Measured values of several laboratories.
Numbered parts are unrelated; each lists some results of a single study. Substitutions count along the parent as printed.

Set 1 — method: RNA Bind-n-Seq; form: RNA; medium: in vitro; concentration: 365 nM; relative to: no-protein control; reading: higher = stronger binding
Target: RNA binding protein fox-1 homolog 2, RRM domain, GST-SBP tag (RBFOX2, Homo sapiens, UniProt O43251-10, residues 100-194)
Notes: natural RNA segment, single round, ends assumed
All sequences stand within: GGGAGUUCUACAGUCCGACGAUC … UGGAAUUCUCGGGUGCCAA
Target sequence (chain): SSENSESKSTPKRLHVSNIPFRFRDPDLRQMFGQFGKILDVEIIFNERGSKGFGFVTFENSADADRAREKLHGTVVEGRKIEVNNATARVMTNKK
Oligonucleotide | RBNS enrichment (R)
GGAGGGAGGGUCUCUCUGCUGGCACUGUCUAACUUGCUUACCUGCUGACUUUGCAGUUUGCUUGUGCUAUGACAUUUAUUGUAGGUGCUAUUUAGGGUAGGCUUAAAGUG | 0.313
CCUAAGCCAGCUGCCCCCAGAGCCACAGUUCCCCUAUGUGGAAGUGGGGCGGGCUUCAUAGAGACUUGGGAAUGAGCUGAAGGUGAAACAUUUUCUCCCUGGAUUUUUAC | 1.47
GAUAAUUUCCAGGUGUCUUCUCAAACGGAGUAAGCGCCUGGAUCCAAAUGGUAGACUACUUGACCCCGUUCUCUAGCGUGAGUUUUCAUAGUGCCAUCUCCUCAUGAUUG | 0.305
AGGAGUUACACAUACAUUUUAUCCUGUCAUACCUCGAGAUAAAGUGGCAUGUUAGUGAGGAGUUCUGAUAUUAAGCACACACACACAUGCACACAAAUGGACUUCUCUGA | 0.862
UUGUUGACUGUGAUUAGAUCACACCUUAAUUCAUUUCUAGACUCAAAACCUGGAGACGCAGCUACUGGAAUGGUGUUUUGUGAGACUUCCAAGGCUGGAAAGACACAGUC | 0.423
CGAGCUGUUUACUAGGGAUCCCUCAUCUGUCCCUCCGGGACCUGGUGCUGCCUCUACCUGACACUCCCUUGGGCUCCCUGUAACCUCUUCAGAGGCCCUCGCUGCCAGCU | 0.192
CUUGGGAUCAGUGGAAAGAAUGAUUGCUAUCCUCACAGAAAACUAUGGGGGCAAAUGGCCCUUUUGGCUGUCCCCUCGCCAGGUAAUGGUAGUUCCAGUGGGACCAACCU | 0.278
UUAGGUGCCUUUGCGGAUGACCUCAUUUUGACGUUGAAAAAAUGAUUUUUUAAUAUGUGAACACUGCAAAAAUGUGUUUAAAUUAUCUUUUUUAAAACCUAUUCAGGAUU | 0.572

Set 2 — method: DHFR PCA, deep sequencing; medium: yeast; together with: (+)-ABA 0.032 µM; relative to: wild-type fitted maximum; reading: higher = stronger binding
Target: ABI1, truncated, D143A, DHFR fusion (Arabidopsis thaliana)
Notes: methotrexate growth selection, single substitutions
Starting sequence: PYL1, truncated, DHFR fusion (Arabidopsis thaliana); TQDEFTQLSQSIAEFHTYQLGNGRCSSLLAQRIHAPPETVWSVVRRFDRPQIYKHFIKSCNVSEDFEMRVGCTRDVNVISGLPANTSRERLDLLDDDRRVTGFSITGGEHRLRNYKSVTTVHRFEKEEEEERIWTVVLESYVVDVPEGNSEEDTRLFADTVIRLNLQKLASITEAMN
Variant | relative binding score [%]
Y18D | -0.466
S11P | 43.8
A175I | -5.97
S27E | -1.17
P50R | -0.452
D144Q | -0.757
V118E | 1.97
Q51F | -14.5
T86A | 9.51
C72G | -1.56
A13S | 21.7
S140K | 1.79
H110D | 47.6
D48M | -0.223

Set 3 — method: protein binding microarray; form: double-stranded DNA, one strand shown; medium: in vitro; concentration: not given; relative to: not given; reading: higher = stronger binding
Target: Histone acetyltransferase KAT6A, both winged helices, GST fusion (KAT6A, Homo sapiens, UniProt Q92794, residues 1-181)
Notes: 8-mer, flanks averaged, mean of 2 arrays, mostly near background
Target sequence (chain): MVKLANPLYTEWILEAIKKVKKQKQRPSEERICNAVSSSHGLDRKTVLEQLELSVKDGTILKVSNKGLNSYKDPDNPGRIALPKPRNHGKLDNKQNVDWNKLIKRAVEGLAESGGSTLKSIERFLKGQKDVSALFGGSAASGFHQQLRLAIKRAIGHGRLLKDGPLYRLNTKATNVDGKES
Oligonucleotide | E-score
ATTGCCGG | 0.263
CGTACGCC | 0.26
CGACTGGA | 0.00878
CCCCTAAC | -0.103
AAACGTCC | 0.0424
CTCCGTGA | 0.166
ACATCCAA | -0.163
CCCCAGCA | -0.0979
GTCAAAGA | -0.135
ATATGCAC | 2e-05
CACAGTGA | -0.124
GGAGGTCA | -0.117
ACGTCCCA | -0.17
AACGCGCG | 0.392
ACTTGAAA | -0.173
ATAATGAA | -0.0857
AATCGGCC | 0.0875
ATGAACAG | -0.169
AGAACTCA | -0.137
ACGCAATC | 0.107
AACGATCT | 0.0674
CGTCCGTC | 0.162
AGCGAATC | 0.0439
ACGCCGTA | 0.286
AAGGGCCC | -0.00119

Set 4 — method: universal PBM; form: double-stranded DNA, one strand shown; medium: in vitro; concentration: 600 nM; reading: higher = stronger binding
Target: Sal-like protein 4, full length isoform A (SALL4, Homo sapiens, UniProt Q9UJQ4, residues 1-1053)
Chain of UniProt Q9UJQ4 (whole entry, looked up): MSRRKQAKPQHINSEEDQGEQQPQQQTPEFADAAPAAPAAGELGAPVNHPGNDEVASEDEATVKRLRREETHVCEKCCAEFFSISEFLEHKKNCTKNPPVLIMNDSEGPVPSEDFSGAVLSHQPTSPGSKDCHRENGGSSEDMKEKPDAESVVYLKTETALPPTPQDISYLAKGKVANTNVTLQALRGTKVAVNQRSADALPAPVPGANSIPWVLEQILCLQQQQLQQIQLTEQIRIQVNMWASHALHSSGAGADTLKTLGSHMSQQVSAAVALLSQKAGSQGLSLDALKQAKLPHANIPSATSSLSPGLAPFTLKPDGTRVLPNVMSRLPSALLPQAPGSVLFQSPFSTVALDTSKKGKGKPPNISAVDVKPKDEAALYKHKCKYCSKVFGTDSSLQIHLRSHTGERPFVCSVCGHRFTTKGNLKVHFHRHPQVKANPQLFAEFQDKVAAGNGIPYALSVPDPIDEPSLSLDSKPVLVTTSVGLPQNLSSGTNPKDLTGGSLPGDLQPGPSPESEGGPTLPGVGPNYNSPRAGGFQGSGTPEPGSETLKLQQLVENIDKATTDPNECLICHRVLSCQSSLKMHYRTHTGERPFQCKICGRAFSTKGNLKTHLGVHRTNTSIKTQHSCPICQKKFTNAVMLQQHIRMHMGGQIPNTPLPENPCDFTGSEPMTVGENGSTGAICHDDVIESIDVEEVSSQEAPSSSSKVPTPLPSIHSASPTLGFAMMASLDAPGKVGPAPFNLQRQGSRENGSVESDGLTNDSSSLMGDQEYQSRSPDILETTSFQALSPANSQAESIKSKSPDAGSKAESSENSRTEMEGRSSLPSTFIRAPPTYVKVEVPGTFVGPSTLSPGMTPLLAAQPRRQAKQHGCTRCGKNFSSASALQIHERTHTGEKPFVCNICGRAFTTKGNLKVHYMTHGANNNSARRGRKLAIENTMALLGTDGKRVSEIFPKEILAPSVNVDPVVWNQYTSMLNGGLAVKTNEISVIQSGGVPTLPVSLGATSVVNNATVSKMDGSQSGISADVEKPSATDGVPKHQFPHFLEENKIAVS
Notes: 8-mer, flanks averaged, mean of replicates
Oligonucleotide | E-score
CGCATTTA | 0.186
GATTTAAA | 0.171
AGTTTAAG | 0.0706
ACGACGGG | -0.231
ACGGTTAT | 0.11
AGGAGCGC | -0.25
CAGATACA | 0.18
AGACAGCC | -0.233
AGTCGGAT | 0.105
AATCAATT | 0.275
ACCAACTG | -0.12
GATGGACC | -0.118
CCCCTTTC | -0.111
GCTGTCAA | -0.199
GATAACGC | -0.0586
CATGCCCA | -0.328
GATACCCA | -0.0885
AGAGTCGA | -0.148
CTTCCTAA | 0.2
GCTACATA | 0.236
CCGCCTCA | -0.275
AGCTAGAA | 0.0238
CAAGCGCG | -0.0838
GCAAAGCA | -0.0347
GGGTCATA | 0.161

Set 5 — target: CCNE2, cyclin fold, Cln2 fusion (human); method: yeast growth competition, sequencing; medium: yeast; notes: strong parent motif; relative to: not given; reading: higher = stronger binding
Starting sequence: RBL1 docking peptide (human); GSAKRRLFGEDPP; partner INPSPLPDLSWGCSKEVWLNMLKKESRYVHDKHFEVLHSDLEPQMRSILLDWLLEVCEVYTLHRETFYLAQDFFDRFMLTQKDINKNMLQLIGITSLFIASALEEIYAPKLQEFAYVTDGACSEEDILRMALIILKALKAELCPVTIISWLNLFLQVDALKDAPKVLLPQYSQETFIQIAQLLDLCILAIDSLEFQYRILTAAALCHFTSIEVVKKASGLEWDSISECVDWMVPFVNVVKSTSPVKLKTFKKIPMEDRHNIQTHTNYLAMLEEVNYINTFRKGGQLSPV
Variant | normalised enrichment score
GSAKRRLFGEDQP [P12Q] | 3.78
GSAKGRLFGEDPP [R5G] | 0.117
GSAKRRLFGEAPP [D11A] | 4.26
GSAKRPLFGEDPP [R6P] | -0.231
GSAKRTLFGEDPP [R6T] | 0.934
GSAKRRLFGQDPP [E10Q] | 3.14
GSAKRRLIGEDPP [F8I] | 0.616
GSAKVRLFGEDPP [R5V] | 0.0353
GHAKRRLFGEDPP [S2H] | 4.64
GSPKRRLFGEDPP [A3P] | 0.682
GSAKRRLFKEDPP [G9K] | 4.44
GSAKRRLFYEDPP [G9Y] | 4.74
GSAKRRLFGEPPP [D11P] | 3.39
GSAKRWLFGEDPP [R6W] | 1.12
GSAKRRLFGGDPP [E10G] | 3.06

For quick reference, copied from above (set 3):
Oligonucleotide | E-score
CCCCTAAC | -0.103
AAACGTCC | 0.0424
CTCCGTGA | 0.166
ACATCCAA | -0.163
CCCCAGCA | -0.0979
GTCAAAGA | -0.135
ATATGCAC | 2e-05
CACAGTGA | -0.124
GGAGGTCA | -0.117
